Assay results of several laboratories.
Every numbered part comes from another study and shows a few of its results, in no order.
UniProt P25100, sequence (whole entry, looked up): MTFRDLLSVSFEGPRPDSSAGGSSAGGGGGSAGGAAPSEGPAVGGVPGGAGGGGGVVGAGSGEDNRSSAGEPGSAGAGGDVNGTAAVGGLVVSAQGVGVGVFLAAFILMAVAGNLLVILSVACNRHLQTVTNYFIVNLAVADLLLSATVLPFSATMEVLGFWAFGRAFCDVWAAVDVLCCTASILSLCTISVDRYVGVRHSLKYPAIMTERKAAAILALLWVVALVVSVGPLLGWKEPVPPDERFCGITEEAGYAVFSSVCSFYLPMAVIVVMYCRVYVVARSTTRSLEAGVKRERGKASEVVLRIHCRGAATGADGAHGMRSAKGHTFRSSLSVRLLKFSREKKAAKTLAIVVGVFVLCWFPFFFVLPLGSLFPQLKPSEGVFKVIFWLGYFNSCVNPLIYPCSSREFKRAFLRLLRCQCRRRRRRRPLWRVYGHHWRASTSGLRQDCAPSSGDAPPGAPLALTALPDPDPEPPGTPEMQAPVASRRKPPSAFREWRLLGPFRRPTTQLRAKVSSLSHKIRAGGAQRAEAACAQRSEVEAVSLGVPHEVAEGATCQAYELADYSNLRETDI

Series 1
Target: Prothrombin, mature alpha-thrombin (F2, Homo sapiens, UniProt P00734)
Method: aptamer microarray, sandwich
Form: DNA with 2'F-ANA
Matrix: in vitro
Concentration: 200 nM
Notes: whole 15-mer aptamer, many near background
Together with: Cy3 exosite-II aptamer, 400 nM
Direction: higher = stronger binding
Oligonucleotide: GGTTGGTGTGGTTGG
Modification	mean fluorescence intensity
2'F-ANA at 3 7 8 9 11 14	662 a.u.
2'F-ANA at 2 3 8 10 14	269 a.u.
2'F-ANA at 1 2 3 7 8 11 13 15	219 a.u.
2'F-ANA at 3 10 11 12 15	600 a.u.
2'F-ANA at 1 3 6 8 10 11 12 13 14 15	63.2 a.u.
2'F-ANA at 3 6 9 11 12 13 14	558 a.u.
2'F-ANA at 3 5 6 7 10 11 15	50.3 a.u.
2'F-ANA at 5 6 7 8 9 10 13	52.8 a.u.

Series 2
Target: Centromere-binding protein 1, full length, N-terminal tag (CBF1, Saccharomyces cerevisiae, UniProt P17106, residues 1-351)
UniProt P17106, sequence (whole entry, looked up): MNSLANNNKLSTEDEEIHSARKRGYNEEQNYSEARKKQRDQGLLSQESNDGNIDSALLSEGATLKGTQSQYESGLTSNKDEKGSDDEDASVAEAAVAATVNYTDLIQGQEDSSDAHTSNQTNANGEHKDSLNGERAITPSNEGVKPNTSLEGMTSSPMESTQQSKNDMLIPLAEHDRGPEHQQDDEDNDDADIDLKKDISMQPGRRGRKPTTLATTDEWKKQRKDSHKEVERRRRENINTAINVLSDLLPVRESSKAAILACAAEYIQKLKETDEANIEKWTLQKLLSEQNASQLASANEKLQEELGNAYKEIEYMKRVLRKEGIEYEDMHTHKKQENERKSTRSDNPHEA
Method: protein-binding microarray
Form: double-stranded DNA, one strand shown
Matrix: in vitro
Concentration: 0.8 µM
Notes: whole 60-bp probe, no competitor
Direction: higher = stronger binding
Constant ends, left off below: … GTCTTGATTCGCTTGACGCTGCTG
Oligonucleotide	fluorescence intensity [a.u.]
TGTACGAAGCTATTAAGCGTGCGTATAGTAGTTAGG	505
TGTACGAAGCTATTGCACGTTCCTATAGTAGTTAGG	581
GAACCTGGCAAGCACAACGTGTGACACAGAAGATAG	789
CTACAAAGTGGCTGTGACATCTAGTATTGATAGTTC	518
GAAGGACGTCGTAATCACGGTTACTAAGTACTTTAG	534
CTACCATATTGTTACCACCACCTCCCCGTGATTTTC	1150
CTATTTGACATTTGTCTCATGACCACGACATTGTTC	1050
GAAATCATCATGACGCACGATATCAATTCTTTGTAG	608

Further values, each from its own experiment
FLT3: Receptor-type tyrosine-protein kinase FLT3 (FLT3, Homo sapiens, UniProt P36888)
SMILES	tested on	test	test system	conditions	scale	measurement	value
O[C@H]1Cc2ccccc2[C@H]1Nc1nc(-c2ccccn2)nc2c1CCNC2	–	–	mouse, microsomes or S9	2 µM, 0.5 h	–	remaining compound	> 100%
Cc1cncc2cccc(S(=O)(=O)N3CCCN(C(=O)CN)C[C@@H]3C)c12	FLT3	enzyme activity, inhibitor	–	0.5 µM	reference: control	remaining activity	90.1%
COC(=O)c1c(C)nc2n(CCN3CCOCC3)c3ccccc3n12	–	–	mouse, microsomes or S9	2 µM, 0.5 h	–	remaining compound	1.45%
N#CC(=C(N)Sc1ccc(N)cc1)c1ccccc1C(F)(F)F	FLT3	enzyme activity, inhibitor	–	0.5 µM	reference: control	remaining activity	107%
C[C@H](c1cccc(C#N)c1)n1cc(Cl)cc(C(N)=O)c1=N	ADRA1D (Homo sapiens, UniProt P25100)	binder, radioligand binding	–	–	–	Ki	10.7 nM

A few entries again (series 2):
Oligonucleotide	fluorescence intensity [a.u.]
TGTACGAAGCTATTGCACGTTCCTATAGTAGTTAGG	581
